Results from different studies.
Each line is one published result; not all experiments were run side by side. Several values in a cell are separate wells, animals, samples, runs or records. ± gives the spread as reported.

Protein sequences, listed by entry. Tags and fused reporters are not part of them.
UniProt P54762, whole entry, looked up: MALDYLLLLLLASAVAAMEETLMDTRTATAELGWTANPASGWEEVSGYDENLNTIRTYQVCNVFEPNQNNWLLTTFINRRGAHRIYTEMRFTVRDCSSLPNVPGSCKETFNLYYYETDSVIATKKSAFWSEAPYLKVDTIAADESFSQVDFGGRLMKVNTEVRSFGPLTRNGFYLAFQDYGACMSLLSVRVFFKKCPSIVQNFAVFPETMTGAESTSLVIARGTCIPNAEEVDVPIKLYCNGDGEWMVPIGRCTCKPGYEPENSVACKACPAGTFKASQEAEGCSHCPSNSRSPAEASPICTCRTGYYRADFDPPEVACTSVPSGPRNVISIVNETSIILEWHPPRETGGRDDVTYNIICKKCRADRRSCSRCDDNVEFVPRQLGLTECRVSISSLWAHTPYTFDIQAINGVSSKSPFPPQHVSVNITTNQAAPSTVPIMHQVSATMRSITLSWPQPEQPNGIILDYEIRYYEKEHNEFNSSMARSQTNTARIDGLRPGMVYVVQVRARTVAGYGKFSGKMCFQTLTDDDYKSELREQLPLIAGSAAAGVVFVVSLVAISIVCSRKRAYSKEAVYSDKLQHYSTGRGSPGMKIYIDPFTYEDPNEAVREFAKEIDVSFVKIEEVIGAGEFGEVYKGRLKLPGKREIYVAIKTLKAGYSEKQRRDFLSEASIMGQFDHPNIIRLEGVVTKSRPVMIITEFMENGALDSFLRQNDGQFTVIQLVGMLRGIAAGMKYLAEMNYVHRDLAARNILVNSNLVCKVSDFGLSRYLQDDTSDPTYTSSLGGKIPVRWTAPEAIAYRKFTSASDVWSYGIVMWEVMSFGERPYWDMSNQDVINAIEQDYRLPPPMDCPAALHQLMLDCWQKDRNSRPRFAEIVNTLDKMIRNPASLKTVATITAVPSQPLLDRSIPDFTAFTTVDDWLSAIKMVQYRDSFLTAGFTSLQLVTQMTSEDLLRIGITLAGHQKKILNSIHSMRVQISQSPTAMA
UniProt Q9Y2U5, whole entry: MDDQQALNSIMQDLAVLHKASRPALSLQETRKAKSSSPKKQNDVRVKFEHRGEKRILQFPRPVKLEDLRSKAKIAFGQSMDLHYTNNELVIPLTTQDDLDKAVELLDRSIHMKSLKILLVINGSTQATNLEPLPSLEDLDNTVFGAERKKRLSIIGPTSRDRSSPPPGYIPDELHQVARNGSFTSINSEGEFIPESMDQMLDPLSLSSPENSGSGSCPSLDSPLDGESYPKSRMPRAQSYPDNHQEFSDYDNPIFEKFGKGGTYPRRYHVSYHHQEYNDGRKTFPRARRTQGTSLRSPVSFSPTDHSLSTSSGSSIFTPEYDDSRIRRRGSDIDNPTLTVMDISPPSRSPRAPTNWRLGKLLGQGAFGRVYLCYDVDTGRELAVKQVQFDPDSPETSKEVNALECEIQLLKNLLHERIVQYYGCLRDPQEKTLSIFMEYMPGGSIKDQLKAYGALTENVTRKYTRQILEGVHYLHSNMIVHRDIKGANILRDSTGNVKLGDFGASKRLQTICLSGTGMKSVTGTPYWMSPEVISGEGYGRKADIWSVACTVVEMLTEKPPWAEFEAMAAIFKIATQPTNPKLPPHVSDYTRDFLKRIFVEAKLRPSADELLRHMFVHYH

For `CC#C/C(=N\OC[C@H]1COCCN1)c1ccc2ncnc(Nc3ccc(OCc4cccc(F)c4)c(Cl)c3)c2c1`, the inhibition was 0.5% (EPHB1 (Homo sapiens, UniProt P54762); kinase activity; 10 µM).
`CO[C@]12CC[C@@]3(C[C@@H]1[C@@](C)(O)C(C)(C)C)[C@H]1Cc4c(Cl)cc(O)c5c4[C@@]3(CCN1CC1CC1)[C@H]2O5` has an AD50 of 4.7 mg/kg (antagonist, tail-flick test; mice; with: morphine).
With `CN1CC[C@]23c4c5ccc(O)c4O[C@H]2[C@@H](O)C=C[C@H]3[C@H]1C5` the ΔΔlog(Emax/EC50) was 2.33 (cAMP inhibition, GloSensor; unit not given; baseline: MOR over KOR).
For `CCN1CCN(Cc2ccc(NC(=O)c3ccc(C)c(/C=C/c4cnc5[nH]ccc5c4OC)c3)cc2C(F)(F)F)CC1`, “log2 fold change” read -0.075 (MAP3K2 (Homo sapiens, UniProt Q9Y2U5); inhibitor, cell-based kinome screen; 5 µM; baseline: vehicle).
`CN(C(=O)Cc1ccc(Cl)c(Cl)c1)[C@@H]1CCCC[C@H]1N1CCCC1`: serum prolactin “increased” (C57BL/6 mouse, male, serum; intraperitoneal, 10 mg/kg, 30 min).
The inhibition of `CC[C@H](C)[C@@H]1NC(=O)[C@H](CCC(=O)O)NC(=O)[C@@H]2CCCN2C(=O)[C@H](Cc2c[nH]cn2)NC(=O)[C@H](CC(=O)O)NC(=O)[C@H](Cc2ccc(O)cc2)NC(=O)[C@H](CC(N)=O)NC(=O)[C@@H]2CSSC[C@@H]3NC(=O)CNC(=O)CNC(=O)CNC(=O)[C@H](C)NC(=O)[C@H](C)NC(=O)CNC(=O)CNC(=O)[C@H](CSSC[C@H](NC3=O)C(=O)N[C@@H](CO)C(=O)N[C@@H](CC(=O)O)C(=O)N3CCC[C@H]3C(=O)N[C@@H](CCCNC(=N)N)C(=O)N2)NC1=O` is reported as 23 ± 2.9% (barium current, inhibitor, electrophysiology; 0.2 µM, Cav2.3d splice variant).
For `CCC(C)C(CC)C(N)=O` (centres unmarked), the ED50 was 54 mg/kg (subcutaneous metrazol seizure test; rat; oral).
For `nociceptin`, the Emax was 76 % inhibition and 78 % inhibition (twitch contraction, electrical stimulation; mouse vas deferens).
The EC50 of `C[C@@H](Cc1cccc2ccccc12)NC[C@H](O)c1cc(O)cc(O)c1` is reported as 103 ± 34 nM (contractility; ventricular cardiomyocytes, rat).
Under tail-withdrawal latency, `NC(=O)[C@H](Cc1ccccc1)NC(=O)[C@H](CCCN=C(N)N)NC(=O)C12CC3CC(CC(C3)C1)C2` is recorded as “no effect” (warm-water tail withdrawal; mouse; intracerebroventricular, 10 nmol).
`CO[C@]12CC[C@@]3(C[C@@H]1[C@](C)(O)C(C)(C)C)[C@H]1Cc4ccc(O)c5c4[C@@]3(CCN1CC1CC1)[C@H]2O5` has an ED50 of 0.016 mg/kg (agonist, PPQ-induced writhing test; mice).

Excerpt of the above:
`CN(C(=O)Cc1ccc(Cl)c(Cl)c1)[C@@H]1CCCC[C@H]1N1CCCC1`: serum prolactin “increased” (C57BL/6 mouse, male, serum; intraperitoneal, 10 mg/kg, 30 min).
